Assay results collected from several papers.
Protocols differ between the studies behind these lines. Numbers after ± are the reported error.
cah: cah (Neisseria gonorrhoeae, UniProt Q50940)
HDAC11: Histone deacetylase 11 (HDAC11, Homo sapiens, UniProt Q96DB2)
DRD1: D(1A) dopamine receptor (DRD1, Homo sapiens, UniProt P21728)
MAOA: Amine oxidase [flavin-containing] A (MAOA, Homo sapiens, UniProt P21397)
CNR2: Cannabinoid receptor 2 (CNR2, Homo sapiens, UniProt P34972)
NAA40: N-alpha-acetyltransferase 40 (NAA40, Homo sapiens, UniProt Q86UY6)

NCCCC[C@@H](NN)C(=O)O  Ki (Inducible lysine decarboxylase (Hafnia alvei, UniProt G9Y9L1)): 4200 ± 1000 nM
CCCCCCCCCCCC(=O)NC1CCOC1=O (stereo not drawn)  Ki (cah; enzyme activity, inhibitor, stopped-flow): > 100000 nM
C=CC[C@@H]1NC(=O)CCSCc2ccc(cc2)CSCCCNC(=O)[C@H](CCCCCC(=O)N(O)CCCCCC)NC1=O  Ki (HDAC11; enzyme activity, inhibitor, fluorescence): 310 nM
O=C(O)CCNC(=S)NCCCC[C@H](NS(=O)(=O)c1cccc(F)c1)C(=O)N[C@@H](Cc1c[nH]c2ccccc12)C(=O)NC1CCC1  Ki (NAD-dependent protein deacylase sirtuin-5, mitochondrial (SIRT5, Homo sapiens, UniProt Q9NXA8); enzyme activity, inhibitor): 2.5 nM
Cc1c(OS(=O)(=O)Oc2ccc3ccccc3c2)cccc1C(=O)NO  Ki (HDAC11): 458 nM
CC[C@H](C)[C@H](NC(=O)[C@H](CCCNC(=N)N)NC(=O)[C@H](CCCNC(=N)N)NC(=O)[C@H](CC(C)C)NC(=O)[C@H](Cc1ccccc1)NC(=O)CNC(=O)CN)C(=O)N[C@@H](CCCNC(=N)N)C(=O)N1CCC[C@H]1C(=O)N[C@@H](CCCCN)C(=O)N[C@@H](CC(C)C)C(=O)N[C@@H](CCCCN)C(N)=O  Ki (Probable G-protein coupled receptor 139 (GPR139, Homo sapiens, UniProt Q6DWJ6); ligand displacement, radioligand; cell membranes): 69.2 nM
Cc1c(OS(=O)(=O)Oc2ccc(C(C)C)cc2)cccc1C(=O)NO  Ki (HDAC11): 178 nM
CCCCCCC(=O)N[C@H]1CCOC1=O  Ki (cah; enzyme activity, inhibitor, stopped-flow): > 100000 nM
CCc1c(Cl)cccc1N1CCN(C[C@H](F)CCNC(=O)c2cc3ccccc3[nH]2)CC1  Ki (DRD1; ligand displacement, radioligand; cell membranes): > 10000 nM
Cc1cc(O)c2c(c1)C(=O)c1c(O)c(O)cc(O)c1C2=O  Ki (MAOA; enzyme activity, inhibitor): 10500 nM
Cc1nc(-c2c[nH]c(C(=O)Nc3ncccc3O)c2)cs1  Ki (Serine protease 1 (PRSS1, Homo sapiens, UniProt P07477); enzyme activity, inhibitor, absorbance): 203000 nM
CCOC(=O)C(CC)(CCCSCCOCCOCCOCCN)NC(=O)c1ccc(C2CC2)c(Cc2ccc(F)cc2)n1 (stereo not drawn)  Ki (CNR2; ligand displacement, radioligand; cell membranes): 18 nM
CC(C)(COP(=O)(O)OP(=O)(O)OC[C@H]1O[C@@H](n2cnc3c(N)ncnc32)[C@H](O)[C@@H]1OP(=O)(O)O)[C@@H](O)C(=O)NCCC(=O)NCCSCCC(=O)N[C@@H](CO)C(=O)NCC(=O)N[C@@H](CCCNC(=N)N)C(=O)NCC(=O)N[C@@H](CCCCN)C(=O)NCCCC[C@H](NC(=O)CC[C@@H]1NC(=O)[C@@H](CCCNC(=N)N)NC(=O)[C@H](CCCNC(=N)N)NC(=O)[C@@H](CCCNC(=N)N)NC(=O)[C@H](CCCNC(=N)N)NC(=O)[C@H](Cc2csc3ccccc23)NC(=O)[C@@H](Cc2ccccc2)NC(=O)[C@H](Cc2ccccc2)NC1=O)C(N)=O  Ki (NAA40; enzyme activity, inhibitor, fluorescence): 23 nM
C=C1C[C@]2(C(=O)OC)C=C(C(=O)Nc3cccc(C(=O)Nc4ccc(Nc5nccc(-c6cccnc6)n5)c(C)c4)c3)C(=O)[C@H]1C2  Ki (Mitogen-activated protein kinase 8 (MAPK8, Homo sapiens, UniProt P45983); SPR two-step binding model; wild-type protein surface): 1.1 nM
CCOC(=O)C(CC)(CCCSCCCCCCNc1ccc([N+](=O)[O-])c2nonc12)NC(=O)c1ccc(C2CC2)c(Cc2ccc(F)cc2)n1 (stereo not drawn)  Ki (CNR2; ligand displacement, radioligand; cell membranes): 55 nM
CN1CC[C@@H](COc2cnc(C#N)cc2-c2ccn3nc(NC(=O)C4CC4)cc3c2)C1  Ki (Tyrosine-protein kinase Yes (YES1, Homo sapiens, UniProt P07947); enzyme activity, inhibitor): 85 nM
CC(C)(COP(=O)(O)OP(=O)(O)OC[C@H]1O[C@@H](n2cnc3c(N)ncnc32)[C@H](O)[C@@H]1OP(=O)(O)O)[C@@H](O)C(=O)NCCC(=O)NCCSCC(=O)N[C@@H](CO)C(=O)NCC(=O)N[C@@H](CCCNC(=N)N)C(N)=O  Ki (NAA40; enzyme activity, inhibitor, fluorescence): 84 nM
Cn1ccc2c(N3CCN(CCCCOc4ccc5c(c4)NC(=O)CC5)CC3)cccc21  Ki (DRD1; ligand displacement, radioligand): > 10000 nM
CCOC(=O)C(CC)(CCCSCCOCCOCCN)NC(=O)c1ccc(C2CC2)c(Cc2ccc(F)cc2)n1 (racemic)  Ki (CNR2; ligand displacement, radioligand; cell membranes): 38 nM
CC(C)c1ccc(/C=C/C(=O)c2ccc(Br)s2)cc1  Ki (MAOA; enzyme activity, inhibitor): 76 nM
CCOC(=O)C(CC)(CCCSCCOCCOCCNC(=O)OC(C)(C)C)NC(=O)c1ccc(C2CC2)c(Cc2ccc(F)cc2)n1 (racemic)  Ki (CNR2; ligand displacement, radioligand; cell membranes): 164 nM
COC1CN([C@H]2CC[C@H]([C@@]3(C)Oc4c(Cl)cc(C(=O)NCc5c(SC)cc(C)[nH]c5=O)c(C)c4O3)CC2)C1  Ki (Histone-lysine N-methyltransferase EZH1, in PRC2 complex (EZH1, Homo sapiens, UniProt Q92800); enzyme activity, inhibitor; with: activator peptide): 0.055 nM
CCOC(=O)[C@](CC)(CCCSCCOCCOCCNC(=O)CCCCCN1C(=CC=CC=CC2=[N+](C)c3ccc4ccccc4c3C2(C)C)C(C)(C)c2c1ccc1ccccc21)NC(=O)c1ccc(C2CC2)c(Cc2ccc(F)cc2)n1  Ki (CNR2; ligand displacement, radioligand; cell membranes): 14 nM
CCCCC1CCC(=O)O1 (stereo not drawn)  Ki (cah; enzyme activity, inhibitor, stopped-flow): 51700 nM
CCOC(=O)[C@H](Cc1ccc(OC)cc1)NC(=O)c1ccc(C2CC2)c(Cc2ccc(F)cc2)n1  Ki (CNR2; ligand displacement, radioligand; cell membranes): 34 nM
O=C(c1cccc(N=Nc2ccc(OC3CC(N4CCCCC4)C3)cc2)c1)N1CCCC1 (stereo not drawn)  Ki (Histamine H4 receptor (HRH4, Homo sapiens, UniProt Q9H3N8); ligand displacement, radioligand): > 10000 nM
CCOC(=O)C(CC)(CCCSCCOCCNC(=O)OC(C)(C)C)NC(=O)c1ccc(C2CC2)c(Cc2ccc(F)cc2)n1 (stereo not drawn)  Ki (CNR2; ligand displacement, radioligand; cell membranes): 112 nM
OCC1OC(n2cnc3c(NCc4ccc(Br)s4)ncnc32)C(O)C1O (stereo not drawn)  Ki (Adenosine receptor A2a (ADORA2A, Homo sapiens, UniProt P29274); ligand displacement, radioligand): 1700 nM
CCOC(=O)[C@@H](CCSC)NC(=O)c1ccc(C2CC2)c(Cc2ccc(F)cc2)n1  Ki (CNR2; ligand displacement, radioligand; cell membranes): 65 nM
Cc1cc(O)c2c(c1O)C(=O)c1cc(O)cc(O)c1C2=O  Ki (MAOA; enzyme activity, inhibitor): 5060 nM

Repeated from above:
CC(C)c1ccc(/C=C/C(=O)c2ccc(Br)s2)cc1  Ki (MAOA; enzyme activity, inhibitor): 76 nM
CCOC(=O)C(CC)(CCCSCCOCCOCCNC(=O)OC(C)(C)C)NC(=O)c1ccc(C2CC2)c(Cc2ccc(F)cc2)n1 (racemic)  Ki (CNR2; ligand displacement, radioligand; cell membranes): 164 nM
COC1CN([C@H]2CC[C@H]([C@@]3(C)Oc4c(Cl)cc(C(=O)NCc5c(SC)cc(C)[nH]c5=O)c(C)c4O3)CC2)C1  Ki (Histone-lysine N-methyltransferase EZH1, in PRC2 complex (EZH1, Homo sapiens, UniProt Q92800); enzyme activity, inhibitor; with: activator peptide): 0.055 nM
CCOC(=O)[C@](CC)(CCCSCCOCCOCCNC(=O)CCCCCN1C(=CC=CC=CC2=[N+](C)c3ccc4ccccc4c3C2(C)C)C(C)(C)c2c1ccc1ccccc21)NC(=O)c1ccc(C2CC2)c(Cc2ccc(F)cc2)n1  Ki (CNR2; ligand displacement, radioligand; cell membranes): 14 nM
